# Assay results gathered from unrelated publications.
# Parts stem from different laboratories: compare values within a part only. Values joined by “and” are separate records of one study, mostly repeats; a detail may differ. Changes are numbered by the printed parent chain.
# Sequence of UniProt Q05397 (whole entry, looked up): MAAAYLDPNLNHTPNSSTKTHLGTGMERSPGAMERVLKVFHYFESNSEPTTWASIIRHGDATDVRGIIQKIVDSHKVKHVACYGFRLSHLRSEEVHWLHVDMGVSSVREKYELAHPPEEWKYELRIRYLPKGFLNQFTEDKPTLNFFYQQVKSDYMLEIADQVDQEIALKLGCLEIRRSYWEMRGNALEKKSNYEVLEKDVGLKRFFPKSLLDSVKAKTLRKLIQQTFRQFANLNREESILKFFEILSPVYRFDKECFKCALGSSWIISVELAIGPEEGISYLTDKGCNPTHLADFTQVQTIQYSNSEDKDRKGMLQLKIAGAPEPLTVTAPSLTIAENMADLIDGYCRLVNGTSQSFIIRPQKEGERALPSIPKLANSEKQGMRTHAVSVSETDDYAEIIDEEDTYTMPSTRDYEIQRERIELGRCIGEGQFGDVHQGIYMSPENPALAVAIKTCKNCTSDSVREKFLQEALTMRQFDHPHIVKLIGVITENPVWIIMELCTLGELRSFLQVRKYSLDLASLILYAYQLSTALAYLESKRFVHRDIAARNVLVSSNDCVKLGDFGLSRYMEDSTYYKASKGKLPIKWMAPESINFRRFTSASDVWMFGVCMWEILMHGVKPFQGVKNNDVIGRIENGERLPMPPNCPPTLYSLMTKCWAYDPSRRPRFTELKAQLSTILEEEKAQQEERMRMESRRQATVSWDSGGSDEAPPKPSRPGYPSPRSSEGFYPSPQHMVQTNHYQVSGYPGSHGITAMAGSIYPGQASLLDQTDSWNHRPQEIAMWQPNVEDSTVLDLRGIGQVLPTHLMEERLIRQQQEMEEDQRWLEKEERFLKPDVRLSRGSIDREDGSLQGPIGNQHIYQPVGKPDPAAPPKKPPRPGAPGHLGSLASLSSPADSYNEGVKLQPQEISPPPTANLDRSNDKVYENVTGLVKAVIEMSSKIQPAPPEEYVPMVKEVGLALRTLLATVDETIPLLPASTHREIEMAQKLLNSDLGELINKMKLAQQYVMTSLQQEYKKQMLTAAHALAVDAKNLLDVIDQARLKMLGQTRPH
# Sequence of UniProt P41595 (whole entry, looked up): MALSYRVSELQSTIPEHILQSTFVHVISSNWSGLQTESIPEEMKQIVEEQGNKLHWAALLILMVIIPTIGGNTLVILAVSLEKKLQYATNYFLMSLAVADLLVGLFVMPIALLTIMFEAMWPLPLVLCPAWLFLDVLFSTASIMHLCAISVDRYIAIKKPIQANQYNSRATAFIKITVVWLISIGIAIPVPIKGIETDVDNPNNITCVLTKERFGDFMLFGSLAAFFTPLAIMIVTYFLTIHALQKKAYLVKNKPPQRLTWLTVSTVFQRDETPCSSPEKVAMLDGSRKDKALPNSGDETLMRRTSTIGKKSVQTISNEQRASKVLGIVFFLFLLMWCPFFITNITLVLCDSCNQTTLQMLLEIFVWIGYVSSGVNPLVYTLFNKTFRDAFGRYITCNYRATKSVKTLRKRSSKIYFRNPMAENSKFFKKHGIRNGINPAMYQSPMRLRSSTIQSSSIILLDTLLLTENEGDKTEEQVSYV

# Block 1
# Target: RING finger protein unkempt homolog, zinc fingers 1-6, GST-SBP tag (UNK, Homo sapiens, UniProt Q9C0B0, residues 30-357)
# Technique: RNA Bind-n-Seq
# Molecule type: RNA
# Sample: in vitro
# Concentration: not given
# Setting: RNA with constant flanks, human and mouse sites, ends assumed
# Baseline: input RNA pool
# Direction: higher = stronger binding
# Constant ends, left off below: GGGAGUUCUACAGUCCGACGAUC … CAACAGAGGAUUGAGCAUCA
# Residues (chain): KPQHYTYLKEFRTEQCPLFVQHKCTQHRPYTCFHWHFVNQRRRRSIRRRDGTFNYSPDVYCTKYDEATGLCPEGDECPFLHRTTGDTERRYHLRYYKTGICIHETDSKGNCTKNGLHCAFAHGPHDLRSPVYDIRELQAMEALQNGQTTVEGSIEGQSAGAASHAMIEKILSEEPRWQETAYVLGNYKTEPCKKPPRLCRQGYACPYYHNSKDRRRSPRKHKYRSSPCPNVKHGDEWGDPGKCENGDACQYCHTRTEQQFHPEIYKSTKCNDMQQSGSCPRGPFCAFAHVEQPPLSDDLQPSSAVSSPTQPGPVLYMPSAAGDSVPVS
Strand,bound/input enrichment
AAUGAGGCUGGUGAUGACCUUGAAGCUGUAGCCAAAUUUCUGGACUCUACAGGCUCAAGAUUAGAUUAUCGUCGCUAUGCAGACACACUCUUCGAUAUCCUGGUGGCUGGCAGUAUGCUU,0.328 ratio
AUCCGGAUGAGCACCGGGCACAUGGAGGGCAACCUGCAGCUGCUGUACGUGCUGCUCACAGACUGCUAUGUCUACCUGCUCCGGAAAGGGGCCACAGAGAAGCCAUACCUGGUGGAAGAG,0.0888 ratio
AUGUGCAAGGAGAUUAUUCCAACUAGUGAAUUUAUUAACAGUAAAUUAACAGCAAAAGCAAAUAGGCAGCUUCAAGACCCUCUAGUAAUCAUGACAGGAAACAUCCCAACAUGGCUCACU,3.93 ratio
GAAGAUCACUUGGCAGUGAAGCAUUUUUCAGUUGAAGGACAGUUGGAAUUCAGAGCCCUUCUAUUUGUCCCACGACGUGCUCCUUUUGAUCUGUUUGAAAACAGAAAGAAAAAGAACAAC,0.105 ratio
CUCAACACGGUGAAGCAGAAGCUGUUUACCGAGGUGGAGGGGACCUGCACUGGGAAAUAUGGCUUUGUAAUUGCUGUCACCACCAUCGACAAUAUUGGUGCUGGUGUGAUCCAGCCAGGC,0.0811 ratio
AAGGUGCUUGAACCAUAUCCAUCAAAAUUAAGCGGCCUGAAAGGGAAAAAUAUCUUCCUAGUAGCUGCUACACUCAGACCUGAGACUAUGUUUGGGCAGACAAAUUGUUGGGUUCGGCCU,0.187 ratio
ACAUCAUGUAUGUAUGUGCAAAUGUUGUCUUUUUGAGGGAAUUUAGUAUUUAAAUUGCUUCAUAGUCUAAGUUAUUAAAUUUUGUAUGAAAUAACUCUUGAAAACAUUCACUUUUCAGUA,0.604 ratio
AUGUCAGGCACCGUGUUGGCAUCACACAACAAACUGUGGAUCAGUUUUUUUUUUUUUUUUUUUUUUUUGGAGUUGAAAGAUGUGAGACAGUAUUCAGAAUAAUGAAGAUAAUAAUGAUGA,1.35 ratio

# Block 2
# Target: CCND3, cyclin fold, Cln2 fusion (human)
# Technique: yeast growth competition, sequencing
# Sample: yeast
# Setting: weak parent motif
# Baseline: not given
# Direction: higher = stronger binding
# Starting sequence: BRCA2 docking peptide (human); PSIKRNLLNEFDR; partner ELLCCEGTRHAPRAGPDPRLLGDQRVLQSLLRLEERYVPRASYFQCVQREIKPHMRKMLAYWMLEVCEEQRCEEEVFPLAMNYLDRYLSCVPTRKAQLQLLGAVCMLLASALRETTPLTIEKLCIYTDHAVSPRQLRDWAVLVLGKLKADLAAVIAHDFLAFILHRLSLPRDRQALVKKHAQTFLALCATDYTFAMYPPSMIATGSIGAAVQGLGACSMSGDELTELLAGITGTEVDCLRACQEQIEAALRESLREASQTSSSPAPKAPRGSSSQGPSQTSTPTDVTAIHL
Substitution,normalised enrichment score
R13T,0.176
I3Q,0.0112
P1L,-0.0162
L8E,0.0629
S2C,0.103
I3H,0.102
N9A,0.216
I3W,0.0682

# Other studies, line by line
# FYN: Tyrosine-protein kinase Fyn (FYN, Homo sapiens, UniProt P06241)
# Sequence of UniProt P06241 (whole entry, looked up): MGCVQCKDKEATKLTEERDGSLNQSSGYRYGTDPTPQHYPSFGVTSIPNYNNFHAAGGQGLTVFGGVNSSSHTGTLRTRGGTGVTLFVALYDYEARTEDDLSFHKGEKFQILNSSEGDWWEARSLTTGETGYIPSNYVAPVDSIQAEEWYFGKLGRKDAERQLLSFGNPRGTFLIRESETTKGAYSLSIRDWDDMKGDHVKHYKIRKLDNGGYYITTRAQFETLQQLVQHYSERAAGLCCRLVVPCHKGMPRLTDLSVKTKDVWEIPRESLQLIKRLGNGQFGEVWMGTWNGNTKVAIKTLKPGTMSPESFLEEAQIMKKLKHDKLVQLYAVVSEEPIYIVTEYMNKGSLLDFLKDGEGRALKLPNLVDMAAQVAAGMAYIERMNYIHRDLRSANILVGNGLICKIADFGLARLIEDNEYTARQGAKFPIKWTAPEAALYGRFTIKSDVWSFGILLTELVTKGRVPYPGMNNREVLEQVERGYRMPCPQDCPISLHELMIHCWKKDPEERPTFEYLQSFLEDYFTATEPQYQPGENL
SMILES,target,assay,system,setting,scale,measurement,result
CN(c1ccnc(CNc2nc(Nc3ccc4c(c3)CC(=O)N4)ncc2C(F)(F)F)n1)S(C)(=O)=O,"Focal adhesion kinase 1 (PTK2, Homo sapiens, UniProt Q05397)","target engagement, NanoBRET",live cells,,,EC50,3.63 µM and 2.45 µM and 3.44 µM
CN(C)CCCn1cc(C2=C(c3c[nH]c4ccccc34)C(=O)NC2=O)c2ccccc21,FYN,"enzyme activity, inhibitor",,0.5 µM,baseline: control,remaining activity,88.3%
O=C1c2ccc(Nc3ccc(F)cc3F)cc2CCc2ccc(OC[C@H](O)CO)cc21,"5-hydroxytryptamine receptor 2B (HTR2B, Homo sapiens, UniProt P41595)",cell-free assay,,10 µM,,inhibition,83.1%
Cc1ccc(NC(=O)c2ccc(CN3CCN(C)CC3)cc2)cc1Nc1nccc(-c2cccnc2)n1,FYN,"enzyme activity, inhibitor",,0.5 µM,baseline: control,remaining activity,85.8%
